Measurements collected from several papers.
Lines come from different studies, so protocols differ. Changes are numbered by the printed parent chain.
Cdca7: Cdca7 241-382 (Mus musculus, UniProt Q9D0M2)
Sequence of UniProt Q9D0M2 (whole entry, looked up): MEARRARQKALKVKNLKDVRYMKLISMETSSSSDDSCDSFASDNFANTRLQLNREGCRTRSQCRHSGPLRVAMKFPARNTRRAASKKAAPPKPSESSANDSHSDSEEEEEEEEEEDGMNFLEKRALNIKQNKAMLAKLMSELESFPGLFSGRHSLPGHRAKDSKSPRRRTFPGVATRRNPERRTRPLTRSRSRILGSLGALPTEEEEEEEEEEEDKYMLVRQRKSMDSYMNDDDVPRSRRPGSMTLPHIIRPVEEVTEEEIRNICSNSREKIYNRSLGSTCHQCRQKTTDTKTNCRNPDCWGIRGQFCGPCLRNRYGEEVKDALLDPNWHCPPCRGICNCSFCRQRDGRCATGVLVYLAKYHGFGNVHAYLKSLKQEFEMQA
T1: MBNL1 ZF1-2 duplicated; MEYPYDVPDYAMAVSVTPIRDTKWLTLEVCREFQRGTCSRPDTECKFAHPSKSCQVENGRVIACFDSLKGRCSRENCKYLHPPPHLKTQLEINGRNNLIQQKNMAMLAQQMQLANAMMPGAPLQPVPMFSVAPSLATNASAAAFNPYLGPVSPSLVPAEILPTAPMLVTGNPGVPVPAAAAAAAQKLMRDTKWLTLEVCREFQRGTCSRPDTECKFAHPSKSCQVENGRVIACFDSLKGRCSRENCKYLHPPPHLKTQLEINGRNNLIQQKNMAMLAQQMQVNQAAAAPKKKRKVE
B1: SULT1E1 (Homo sapiens, UniProt P49888); chain MNSELDYYEKFEEVHGILMYKDFVKYWDNVEAFQARPDDLVIATYPKSGTTWVSEIVYMIYKEGDVEKCKEDVIFNRIPFLECRKENLMNGVKQLDEMNSPRIVKTHLPPELLPASFWEKDCKIIYLCRNAKDVAVSFYYFFLMVAGHPNPGSFPEFVEKFMQGQVPYGSWYKHVKSWWEKGKSPRVLFLFYEDLKEDIRKEVIKLIHFLERKPSEELVDRIIHHTSFQEMKNNPSTNYTTLPDEIMNQKLSPFMRKGITGDWKNHFTVALNEKFDKHYEQQMKESTLKFRTEI
P1: PRDX1 residues 1-199; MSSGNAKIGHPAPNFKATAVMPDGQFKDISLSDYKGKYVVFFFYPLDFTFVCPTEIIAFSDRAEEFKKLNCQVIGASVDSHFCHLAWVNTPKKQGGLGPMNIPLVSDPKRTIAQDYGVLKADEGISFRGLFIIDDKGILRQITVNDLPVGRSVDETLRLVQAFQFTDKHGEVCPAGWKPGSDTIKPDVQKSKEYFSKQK
B2: IL18 mature form (Mus musculus, UniProt P70380); chain FGRLHCTTAVIRNINDQVLFVDKRQPVFEDMTDIDQSASEPQTRLIIYMYKDSEVRGLAVTLSVKDSKMSTLSCKNKIISFEEMDPPENIDDIQSDLIFFQKRVPGHNKMEFESSLYEGHFLACQKEDDAFKLILKKKDENGDKSVMFTLTNLHQS
Sequence of UniProt Q9Z0M9 (whole entry, looked up): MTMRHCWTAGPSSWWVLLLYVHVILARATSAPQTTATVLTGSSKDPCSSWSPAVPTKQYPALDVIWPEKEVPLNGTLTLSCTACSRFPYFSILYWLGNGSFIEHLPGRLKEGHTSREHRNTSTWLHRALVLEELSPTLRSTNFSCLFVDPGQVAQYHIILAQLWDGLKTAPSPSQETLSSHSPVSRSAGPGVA
Sequence of UniProt P00698 (whole entry, looked up): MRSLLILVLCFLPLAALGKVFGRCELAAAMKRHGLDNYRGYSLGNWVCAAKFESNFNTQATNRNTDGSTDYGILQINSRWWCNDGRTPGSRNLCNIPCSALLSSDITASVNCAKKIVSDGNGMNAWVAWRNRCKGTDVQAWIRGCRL
Sequence of UniProt Q01130 (whole entry, looked up): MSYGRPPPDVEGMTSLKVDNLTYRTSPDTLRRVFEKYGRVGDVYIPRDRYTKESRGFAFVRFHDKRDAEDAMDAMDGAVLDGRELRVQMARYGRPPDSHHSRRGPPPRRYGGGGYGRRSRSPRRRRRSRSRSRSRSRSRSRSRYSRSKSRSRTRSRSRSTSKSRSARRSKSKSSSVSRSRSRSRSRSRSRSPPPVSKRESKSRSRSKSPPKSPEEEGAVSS
Sequence of UniProt Q06609 (whole entry, looked up): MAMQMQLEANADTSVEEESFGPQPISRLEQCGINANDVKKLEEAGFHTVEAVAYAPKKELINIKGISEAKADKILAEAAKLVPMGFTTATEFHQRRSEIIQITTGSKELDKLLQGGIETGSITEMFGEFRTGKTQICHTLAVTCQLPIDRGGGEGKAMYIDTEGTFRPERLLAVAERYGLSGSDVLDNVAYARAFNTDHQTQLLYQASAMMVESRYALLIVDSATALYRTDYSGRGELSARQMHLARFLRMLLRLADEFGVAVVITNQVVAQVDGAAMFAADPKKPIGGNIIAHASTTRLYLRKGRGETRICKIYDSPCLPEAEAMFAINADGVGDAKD
Sequence of UniProt O95639 (whole entry, looked up): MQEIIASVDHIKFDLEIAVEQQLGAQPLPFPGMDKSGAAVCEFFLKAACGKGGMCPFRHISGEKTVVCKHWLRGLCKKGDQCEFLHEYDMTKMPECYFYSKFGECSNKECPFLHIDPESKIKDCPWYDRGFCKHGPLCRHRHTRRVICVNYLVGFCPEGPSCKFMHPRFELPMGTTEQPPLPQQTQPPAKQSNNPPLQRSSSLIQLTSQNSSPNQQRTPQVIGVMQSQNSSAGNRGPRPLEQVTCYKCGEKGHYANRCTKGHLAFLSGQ
Sequence of UniProt Q16637 (whole entry, looked up): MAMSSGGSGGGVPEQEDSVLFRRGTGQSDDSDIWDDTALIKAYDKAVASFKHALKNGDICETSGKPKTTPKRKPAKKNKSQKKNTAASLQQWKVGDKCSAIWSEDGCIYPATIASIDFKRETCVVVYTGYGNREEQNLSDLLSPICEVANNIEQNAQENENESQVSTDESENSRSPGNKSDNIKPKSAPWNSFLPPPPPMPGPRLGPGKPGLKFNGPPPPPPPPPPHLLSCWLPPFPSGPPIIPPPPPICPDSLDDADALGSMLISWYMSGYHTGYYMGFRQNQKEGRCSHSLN
Sequence of UniProt P49821 (whole entry, looked up): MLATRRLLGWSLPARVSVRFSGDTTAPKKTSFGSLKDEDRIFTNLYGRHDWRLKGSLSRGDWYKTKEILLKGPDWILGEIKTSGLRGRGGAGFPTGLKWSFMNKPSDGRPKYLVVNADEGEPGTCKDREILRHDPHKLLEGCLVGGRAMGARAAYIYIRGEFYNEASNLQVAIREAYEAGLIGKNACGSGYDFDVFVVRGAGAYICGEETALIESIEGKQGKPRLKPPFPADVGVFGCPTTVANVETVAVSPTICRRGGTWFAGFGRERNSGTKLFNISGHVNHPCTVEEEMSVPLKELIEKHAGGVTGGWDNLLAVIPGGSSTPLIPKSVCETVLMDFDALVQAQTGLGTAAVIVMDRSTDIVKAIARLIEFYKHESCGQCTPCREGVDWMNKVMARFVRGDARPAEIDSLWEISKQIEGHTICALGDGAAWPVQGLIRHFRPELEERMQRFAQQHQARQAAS
Sequence of UniProt P19525 (whole entry, unmodified, looked up): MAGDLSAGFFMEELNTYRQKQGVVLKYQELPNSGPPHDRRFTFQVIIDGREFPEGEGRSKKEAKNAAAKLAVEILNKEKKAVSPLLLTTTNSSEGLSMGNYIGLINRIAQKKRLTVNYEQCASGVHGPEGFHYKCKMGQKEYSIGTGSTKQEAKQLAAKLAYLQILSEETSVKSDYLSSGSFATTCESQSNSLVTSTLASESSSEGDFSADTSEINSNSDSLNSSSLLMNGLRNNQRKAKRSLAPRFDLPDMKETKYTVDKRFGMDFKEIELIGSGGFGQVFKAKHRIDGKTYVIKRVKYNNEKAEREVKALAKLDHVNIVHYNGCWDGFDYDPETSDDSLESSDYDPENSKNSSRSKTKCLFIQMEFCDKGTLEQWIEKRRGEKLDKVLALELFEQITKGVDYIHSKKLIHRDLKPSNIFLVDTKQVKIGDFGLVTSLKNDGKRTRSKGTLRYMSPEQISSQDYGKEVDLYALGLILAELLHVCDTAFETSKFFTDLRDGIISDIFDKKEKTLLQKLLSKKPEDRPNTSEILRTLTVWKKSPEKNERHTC

`GGGAAUGGAUCCACAUCUACGAAUUCAUCAGGGCUAAAGAGUGCAGAGUUACUUAGUUCACUGCAGACUUGACGAA (structured RNA)` — result for binding: “binds” (LYZ 19-147 (Gallus gallus, UniProt P00698); filter binding; folded RNA).
`RNA CAACGCCCUGUCGGUGAGAAACCGUUUGCA / DNA TGCAAACGGTTTCTCACCGACAGGGCGTTG (DNA:RNA hybrid)` — result for binding: “no binding” (Cdca7; EMSA; DNA-RNA hybrid).
For `GAAACGGGACGGCACCUCUUUUAACCCUUGAAGUCACUGCCCGUUUCGAGAGUUUCUCAACUCGAAUAACUAAAGCCAACGUGAACUUUUGCGGAUCUCCAGGAUCCGCUUUUUUUU (structured RNA)`, binding read “binds” (hfq full length assumed K31W (Escherichia coli, UniProt P0A6X3); tryptophan fluorescence quenching; folded RNA).
Under binding, `GGGCUCACCACGCACGUGCGAACUUACUCGUGGAACCGGCCCUCACCACGGCAAGCU (structured RNA)` is recorded as “binds” (Survival motor neuron protein 1-294 (Homo sapiens, UniProt Q16637); competition; folded RNA; little effect).
`ATGTGTTAGTTGGGGGGTGACTGTTAAAAGTGCATACCGCCAAAAGATAAAATTTGAAATCTG (dsDNA; 2-aminopurine at -1 non-template)`: binding “binds” (POLRMT/TFAM 43-1230; 43-245 (Homo sapiens); 2-AP fluorescence; double-stranded DNA, one strand shown).
Under binding, `AGGGGGCCGUGGGGUGGGAGCUGGGG (G-quadruplex RNA; G4)` is recorded as “binds” (NDUFV1 full length assumed (Homo sapiens, UniProt P49821); EMSA; folded RNA; 100 nM).
Under binding, `CGGGTGTCGGGGCTGGCTTAACTATGCGGCATCAGAGCAGATTGTACTGAGAGTGCACCATATGCGGTGTGAAATACCGCACAGATGCGT (ssDNA)` is recorded as “binds” (RAD51 full length assumed (Homo sapiens, UniProt Q06609); filter binding; single-stranded DNA).
For `DNA 1 GCTGATCAACGCCCTGTCGGTGAGACTAGTACATG / DNA 2 CATGTACTAGTCGAACCGTTTGCGTTGATCAGC (DNA; 5mC on both stem CpGs)`, binding read “no binding” (Cdca7; EMSA; folded DNA).
`GGGUAACCAUUAUAACCUGCAAUAAACAACUUAACAACAC (ssRNA)` — result for binding: “binds” (CPSF4 full length assumed (Homo sapiens, UniProt O95639); UV cross-linking; RNA; within CPSF complex).
For `RNA 1 GGAGGAUGUUAAUUGGCGUG / RNA 2 CACGCCAAUUAACAUCCUCC (dsRNA)`, binding read “binds” (EIF2AK2 1-185 F41W (Homo sapiens, UniProt P19525); tryptophan fluorescence anisotropy; double-stranded RNA; 1 µM).
For `DNA 1 TGGCCAAAAAAGCATTGCTTATCAATTTGTTGCACC / DNA 2 TGGTGCAACAAATTGATAAGCAATGCTTTTTTGGCC (dsDNA; 5' T overhangs)`, binding read “binds” (IHF alpha/IHF beta (Escherichia coli); fluorescence anisotropy; double-stranded DNA; 20 °C).
With `B1 (SULT1E1)` the Vmax was 0.00824 µmol/min/mg (O=C(O[C@@H]1Cc2c(O)cc(O)cc2O[C@@H]1c1cc(O)c(O)c(O)c1)c1cc(O)c(O)c(O)c1; steady-state kinetics; pH 7.4, not purified).
`P1 D47A` gave an IP/Input of 0.47 IP/Input (DOK3 fragment; pull-down; without SAB, read off a plot; higher = more binding).
`UUUUGCUUUUUUUUUUUGCUUUU (ssRNA)`: binding “binds” (T1, MBNL1 ZF1-2 duplicated; EMSA; RNA).
The Kd of `B2 (IL18 mature form)` is reported as 1.1 pM (Il18bp (Mus musculus, UniProt Q9Z0M9); SPR; read off a plot).
`CUAGGCGCAGUUGUGUAGCAGUUGAGUAAUGCUGGUUAGCUGUUAAGGUGGCGUGUUGCAGUGCAGAGUGCUUGGCUGUUUCCUGUUUUCUCCCGAUUGCUCCUGUGUAA (RNA; long stem loop)`: binding “binds” (SRSF2 1-221 (Homo sapiens, UniProt Q01130); RNase footprinting; folded RNA).
`RNA 1 GGAGGAUGUUAAUUGGCGUGUCUUGUCUGCAACGGUAUUC / RNA 2 GAAUACCGUUGCAGACAAGACACGCCAAUUAACAUCCUCC (dsRNA)` — result for binding: “binds” (EIF2AK2 1-185 Y142W/R107A (Homo sapiens, UniProt P19525); tryptophan fluorescence anisotropy; double-stranded RNA; 1 µM).
Under binding, `GCGACGCCCTGTCGGTGAGAAACCGTTTGCGTCGC (DNA; non-B structure)` is recorded as “binds” (Cdca7; EMSA; folded DNA).
